# Literature values as cited in several papers.
# Lines come from different studies, so protocols differ. Values joined by “and” are separate records of one study, mostly repeats; a detail may differ.
SMILES,tested on,test,system,setting,quantity,result
CCCCCOc1ccc(-c2ccc(-c3ccc(C(=O)N[C@H]4C[C@@H](O)[C@@H](O)NC(=O)[C@@H]5[C@@H](O)[C@@H](C)CN5C(=O)[C@H]([C@@H](C)O)NC(=O)[C@H]([C@H](O)[C@@H](O)c5ccc(O)cc5)NC(=O)[C@@H]5C[C@@H](O)CN5C(=O)[C@H]([C@@H](C)O)NC4=O)cc3)cc2)cc1,,,"human, invasive aspergillosis patients","dose not given, sample A kg patient, typical value",central volume of distribution,8.91 L
C[C@@H](O[C@H]1OCCN(Cc2n[nH]c(=O)[nH]2)[C@H]1c1ccc(F)cc1)c1cc(C(F)(F)F)cc(C(F)(F)F)c1,,,human,,fraction unbound,0.001
O=C(O)C(F)(F)C(F)(F)C(F)(F)C(F)(F)C(F)(F)F,CYP1A2,inhibitor,,Tox21 screening,IC50,inactive
NC(=O)c1ncn([C@@H]2O[C@H](CO)[C@@H](O)[C@H]2O)n1,IMPDH2,inhibitor,,concentration not given,IC50,100 to 250 nM
COc1ccc2c(c1)[nH]c1c(C)nccc12,human CLK2,"kinase activity, inhibitor",,,IC50,280 nM
O=C(/C=C/CCc1ccc(O)c(O)c1)CCc1ccc(O)c(O)c1,papain-like protease,"enzyme activity, inhibitor",,,IC50,4100 nM
CNC(=O)c1c(C)oc2cc(Oc3ccnc4cc(OCCN5CCOCC5)ccc34)ccc12,VEGFR-2,,,target plasma concentration,IC50,8 ng/mL
CC[C@H](C)[C@@H](C(=O)O[C@@H](CC(C)C)C(=O)N[C@@H](CC(C)C)C(=O)N[C@@H](C)/C=C/C(=O)N1C(=O)C=C(OC)[C@@H]1C)N(C)C,cathepsin L,"enzyme activity, inhibitor",,,IC50,5 nM
C[C@@H]1CN(c2ncc(C(O)CO)cc2Cl)CCN1c1nc2c(-c3cc(F)c(F)c(F)c3)cc(C(F)(F)F)cc2[nH]1 (stereo partly shown),TRPV1 (rat),"antagonist, cell-based",,together with: capsaicin,IC50,0.9 nM
C[C@@](O)(/C=C/[C@H]1CC=CC(=O)O1)[C@@H](C[C@@H](O)\C=C/C=C\C=C\CO)OP(=O)(O)O,protein phosphatase 2A catalytic subunit,"enzyme activity, inhibitor",,,IC50,~2 nM
CNc1nc(C)nc(N[C@H]2CCC[C@@H](C(=O)NCc3ccc(C#N)cc3C(F)(F)F)C2)n1,mouse soluble epoxide hydrolase,"enzyme activity, inhibitor",,,IC50,189 nM
O=C1C=CC(=O)c2ccccc21,"Reaction center protein M chain, QA site (pufM, Cereibacter sphaeroides, UniProt P0C0Y9)","P+HA− charge separation, delayed fluorescence",,,free energy change,-540 meV
COC(=O)[C@@H]1C[C@H](OC(C)=O)C(=O)[C@H]2[C@@]1(C)CC[C@H]1C(=O)O[C@H](c3ccoc3)C[C@]21C,kappa opioid receptor E297A,,,,Ki,15 nM and 19.5 nM
Cc1noc2c1-c1ccccc1C(c1ccc(Cl)cc1)=N[C@H]2CC(N)=O,BRD2,inhibitor,,,IC50,25 nM
CC(C)[C@H](NC(=O)[C@H](CCCNC(=N)N)NC(=O)N[C@@H](Cc1ccccc1)C(=O)O)C(=O)N[C@H](C=O)CCCNC(=N)N,CTSD,,,,IC50,200000 nM
O=C(N[C@H](CO)[C@H](O)c1ccc([N+](=O)[O-])cc1)C(Cl)Cl,mitochondrial ribosome,inhibitor,,,IC50,7400 nM
CCN(C)C(=O)Oc1cccc([C@H](C)N(C)C)c1,,,dog,,fraction unbound,0.487
COc1ccc(-c2nn3c(-c4cccs4)nnc3s2)cc1OC,dCTPase DCTPP1,inhibitor,,,IC50,20 nM
CSCC[C@@H]1NC(=O)[C@@H]2CCCN2C(=O)[C@H](CCCNC(=N)N)NC(=O)[C@H](CCCCN)NC(=O)[C@H](CCC(=O)O)NC(=O)[C@H](Cc2ccc(O)cc2)NC(=O)[C@H](CO)NC(=O)[C@@H](N)CSSC[C@@H](C(=O)O)NC1=O,FtsZ,"GTPase activity, inhibitor",,,IC50,450000 nM

# A few entries again:
SMILES,tested on,test,system,setting,quantity,result
NC(=O)c1ncn([C@@H]2O[C@H](CO)[C@@H](O)[C@H]2O)n1,IMPDH2,inhibitor,,concentration not given,IC50,100 to 250 nM
